{"data": "Measured values collected from several papers", "target": "D(3) dopamine receptor (DRD3, Homo sapiens, UniProt P35462)", "note": "Lines come from different studies, so protocols differ.", "sequence of UniProt P35462 (whole entry, looked up)": "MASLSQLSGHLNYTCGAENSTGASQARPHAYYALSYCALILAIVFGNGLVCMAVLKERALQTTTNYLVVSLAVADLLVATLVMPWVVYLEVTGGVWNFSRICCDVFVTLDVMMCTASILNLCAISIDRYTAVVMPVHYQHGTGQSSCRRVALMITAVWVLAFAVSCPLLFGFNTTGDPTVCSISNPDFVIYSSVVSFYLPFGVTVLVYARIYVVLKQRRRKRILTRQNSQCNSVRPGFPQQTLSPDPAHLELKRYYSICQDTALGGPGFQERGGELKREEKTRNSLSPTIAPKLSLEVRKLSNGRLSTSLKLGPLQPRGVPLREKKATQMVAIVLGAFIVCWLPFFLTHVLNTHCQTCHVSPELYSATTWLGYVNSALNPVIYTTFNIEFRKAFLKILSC"}
{"SMILES": "O=C1c2sc(-c3ccc(N4CCC(CO)CC4)nc3F)nc2CCN1c1cccnc1", "observed": "ligand displacement", "method": "radioligand", "tested at": "1 µM", "inhibition": "-3%"}
{"SMILES": "Cc1ccnc(OC[C@H]2CN(CCN3CCc4ccccc43)CCO2)c1", "observed": "radioligand binding", "tested at": "concentration not given", "together with": "[3H]N-methylspiperone", "inhibition": "0.2%"}
{"SMILES": "NS(=O)(=O)c1ccc(CCNCc2ccc(-c3ccccc3F)o2)cc1", "observed": "enzyme activity", "mode": "inhibitor", "tested at": "10 µM", "inhibition": "58.5%"}
{"SMILES": "COCC(=O)N1CCc2cc(-c3csc(NC(=O)c4cc(OC)cc(OC)c4)n3)ccc21", "observed": "cell-free assay", "tested at": "10 µM", "inhibition": "7%"}
{"SMILES": "Cn1ccc2cc(-n3c(=O)[nH]c4sc5c(c4c3=O)CCCC5)ccc21", "observed": "cell-free assay", "method": "radioligand", "tested at": "10 µM", "inhibition": "10%"}
{"SMILES": "CC1Cc2ccccc2N1C(=O)CN1CCN(c2ccccc2)CC1 (stereo not shown)", "observed": "radioligand binding", "tested at": "concentration not given", "together with": "[3H]N-methylspiperone", "inhibition": "51%"}
{"SMILES": "Cc1[nH]nc2c1N=C(c1ccccc1Cl)c1cnc(N3CCOCC3)cc1N2", "observed": "cell-free assay", "tested at": "10 µM", "inhibition": "36%"}
{"SMILES": "Nc1ccccc1C(=O)NCCCN1CCN(Cc2ccccc2)CC1", "observed": "enzyme activity", "mode": "inhibitor", "tested at": "10 µM", "inhibition": "-9.7%"}
{"SMILES": "CC(C)Cn1c(SCC(=O)N2CCc3ccccc3C2)nc2cc(Cl)ccc2c1=O", "observed": "ligand displacement", "method": "radioligand", "tested at": "10 µM", "inhibition": "-6%"}
{"SMILES": "COC(=O)c1ccccc1NC(=O)CN1CCN(c2cccc(C(F)(F)F)c2)CC1", "observed": "enzyme activity", "mode": "inhibitor", "tested at": "10 µM", "inhibition": "-9.5%"}
{"SMILES": "c1ccc(OC[C@H]2CN(CCN3CCc4ccccc43)CCO2)nc1", "observed": "radioligand binding", "tested at": "concentration not given", "together with": "[3H]N-methylspiperone", "inhibition": "85.6%"}
{"SMILES": "COc1ccc(C(=O)Nc2c(-c3cccs3)nc3ccccn23)cc1", "observed": "ligand displacement", "method": "radioligand", "tested at": "10 µM", "inhibition": "< 50%"}
{"SMILES": "COc1cc(CNCCc2ccc(F)cc2)cc(Cl)c1OCC(N)=O", "observed": "enzyme activity", "mode": "inhibitor", "tested at": "10 µM", "inhibition": "16.1%"}
{"note": "A few entries again:"}
{"SMILES": "Nc1ccccc1C(=O)NCCCN1CCN(Cc2ccccc2)CC1", "observed": "enzyme activity", "mode": "inhibitor", "tested at": "10 µM", "inhibition": "-9.7%"}
